Measurements pooled from the literature.
Lines come from different studies, so protocols differ. Values joined by “and” are separate records of one study, mostly repeats; a detail may differ. Numbers after ± are the reported error. ≈ marks a conversion by molar mass, not a printed value.

SMILES	target or system	assay	test system	conditions	scale	measurement	value
CNS(=O)(=O)Nc1nccc(Cc2c(C)c3ccc(Oc4ncccc4F)cc3oc2=O)c1F	MOLP-8	cell viability	–	7 days	–	IC50	22.8 nM
CC(C)Oc1ccc(CNCCC2(C(C)C)CCOC(C)(C)C2)cc1 (stereo not shown)	Trypanosoma cruzi	reporter mRNA translation, inhibitor, measured: Renilla luciferase mRNA	cell-free extract	concentration not given, test 1	reference: positive over negative control	translation activity	63.5%
O=c1[nH]cc(C(c2cccc(Cl)c2)c2c[nH]c(=O)[nH]c2=O)c(=O)[nH]1	HIV-1 subtype C	p24 antigen production, p24 ELISA	–	31.25 µg/mL	–	inhibition	33%
Cc1cccc2c1N(C(=O)n1ccnn1)CC2	Arabidopsis thaliana	–	wild type	3 µM, seedlings	–	hypocotyl length	10.8 mm
c1ccc(-c2n[nH]cc2-c2ccnc3ccccc23)nc1	RCK2 (Candida albicans)	kinase binding, MIB/MS competition	Candida albicans lysate	10 µM	reference: DMSO	log2 fold change	-0.2
CCN(CC)CC(=O)Nc1cccc(-n2cc(-c3ccc4ccc(-c5cn(-c6cccc(NC(=O)CN(CC)CC)c6)nn5)cc4c3)nn2)c1	RCC4	PCR angiogenesis array, measured: ERBB2	–	5 x IC50, 6 h, normoxia	reference: untreated	fold regulation	1.18
COc1cc(O)ccc1CCC(c1ccc(O)cc1)c1cc2c(c(C)c1O)OC(c1ccc(O)cc1)CC2 (mixture of isomers)	–	measured: 12-HEPE	human whole blood	30 µM, added: Escherichia coli	–	amount	2900 ± 1320 pg/mL blood
C=CC(=O)Nc1cccc(Cn2ncc3cnc(Nc4cnn(CCOC)c4)nc32)c1	BRAF human	binding, KINOMEscan	–	100 nM	lower = stronger binding	percent of control	98%
CC(=O)[O-].O.O.O.O.[Co+2].[O-]c1ccc(Br)cc1C=NCCN1CCOCC1	–	hydroxyl radical scavenging	–	40 µM	–	inhibition	7.82%
O=c1[nH]cc(C(c2ccccc2Br)c2c[nH]c(=O)[nH]c2=O)c(=O)[nH]1	HIV-1 subtype C	p24 antigen production, p24 ELISA	–	62.5 µg/mL	–	inhibition	39%
Nc1ncc(-c2cc(-c3cnn(CC(F)(F)F)c3)ncc2F)nc1C(=O)NC1CNCC(F)C1 (stereo not shown)	TRPM6	KINOMEscan	–	1 µM	reference: DMSO control	remaining binding	100%
COC1CN([C@H]2CC[C@H]([C@@]3(C)Oc4c(Cl)cc(C(=O)NCc5c(SC)cc(C)[nH]c5=O)c(C)c4O3)CC2)C1	–	RNA-seq, measured: NDNF	human, whole blood	dose not given, 24 h	reference: pretreatment baseline	log2 fold change	7.43
Cc1ncsc1-c1ccc(C(C)NC(=O)C2CC(O)CN2C(=O)C(NC(=O)CCCCCCCCCCN2CCCC(Nc3ncc(Cl)c(Nc4ccccc4S(=O)(=O)C(C)C)n3)C2)C(C)(C)C)cc1 (stereo not shown)	22Rv1	RNA-seq, measured: TRAF3IP2 mRNA	–	concentration not given	reference: DMSO	log2 fold change	-1.4
C[C@]12CCC(O)CC1=CCC1C2CC[C@]2(C)/C(=N\NC(N)=S)CCC12 (stereo partly shown)	Trypanosoma cruzi	reporter mRNA translation, inhibitor, measured: Renilla luciferase mRNA	cell-free extract	concentration not given, test 1	reference: positive over negative control	translation activity	85.6% and 108%
C1=NCCCN=Cc2ccc([nH]2)-c2nc3ccccc3nc2-c2ccc1[nH]2	human ACTN3 291-bp linear dsDNA	high-resolution melt	–	5.3 µM	–	melting temperature	83 °C
CC1=C[C@@H](O/C=C2/C(=O)O[C@H]3c4ccccc4C[C@@H]23)OC1=O	Arabidopsis thaliana	–	Col-0	–	–	maximum germination	80%
Cn1ncc2cc(-c3cncc(Cl)c3N3CCC4(CCNC4=O)CC3)ccc21	LS174T	gene expression, microarray, measured: LDB2 mRNA	–	concentration not given, 24 h	reference: untreated cells	log2 fold change	2.04
C=C(NC(=O)c1csc(-c2nc3c(cc2O)-c2nc(cs2)C(=O)NC(C(C)O)C(=O)NC(=C(C)OC)c2nc(cs2)C(=O)NC2c4nc(cs4)C(=O)NC(COC(=O)c4c5c6c(cccc6n4O)COC(=O)C(OC4CC(C)(O)C(N(C)C)C(C)O4)C2OC5)c2nc-3cs2)n1)C(N)=O (stereo not shown)	Streptococcus pyogenes	–	10 isolates	serum 75%	–	MIC50	0.0156 µg/mL (≈ 0.0109 µM)
COc1ccc(CNc2nc([C@H]3CC[C@H](C(=O)O)CC3)nc3sc4ccccc4c23)cc1Cl	Cryptosporidium parvum	parasite growth, immunofluorescence imaging	HCT-8, Iowa	24.7 nM	–	inhibition	-19.4% and -14.8%
CC(C)c1ccc(N(C)c2ccc3c(c2)OCC[C@H]3CNc2cnccc2C(=O)O)cc1	KNS-81	cell growth, CellTiter-Glo	–	7 days	–	IC50	≥ 10000 nM
CCOc1cncc(-c2ccc(NC(=O)C3(c4ccnc(NS(=O)(=O)C5CC5)n4)CCOCC3)nc2)n1	lung cancer	cell viability, CellTiter-Glo	DMSO 0.1%	72 h, line code 1674	–	IC50	81 nM
CN1CCCNC(=O)c2cccc(c2)C(=O)NCCCN(C)CCCNc2cccc3c2C(=O)c2cccc(c2C3=O)NCCC1	SAS	RNA-Seq, measured: UBFD1 mRNA	–	1 µM, 6 h	reference: untreated cells	log2 fold change	-0.612

Repeated from above:
SMILES	target or system	assay	test system	conditions	scale	measurement	value
Cc1cccc2c1N(C(=O)n1ccnn1)CC2	Arabidopsis thaliana	–	wild type	3 µM, seedlings	–	hypocotyl length	10.8 mm
